Measurements pooled from the literature.
Numbered parts are unrelated; each lists some results of a single study. Several values in a cell are separate wells, animals, samples, runs or records.
Sequence of UniProt P42336 (whole entry, unmodified, looked up): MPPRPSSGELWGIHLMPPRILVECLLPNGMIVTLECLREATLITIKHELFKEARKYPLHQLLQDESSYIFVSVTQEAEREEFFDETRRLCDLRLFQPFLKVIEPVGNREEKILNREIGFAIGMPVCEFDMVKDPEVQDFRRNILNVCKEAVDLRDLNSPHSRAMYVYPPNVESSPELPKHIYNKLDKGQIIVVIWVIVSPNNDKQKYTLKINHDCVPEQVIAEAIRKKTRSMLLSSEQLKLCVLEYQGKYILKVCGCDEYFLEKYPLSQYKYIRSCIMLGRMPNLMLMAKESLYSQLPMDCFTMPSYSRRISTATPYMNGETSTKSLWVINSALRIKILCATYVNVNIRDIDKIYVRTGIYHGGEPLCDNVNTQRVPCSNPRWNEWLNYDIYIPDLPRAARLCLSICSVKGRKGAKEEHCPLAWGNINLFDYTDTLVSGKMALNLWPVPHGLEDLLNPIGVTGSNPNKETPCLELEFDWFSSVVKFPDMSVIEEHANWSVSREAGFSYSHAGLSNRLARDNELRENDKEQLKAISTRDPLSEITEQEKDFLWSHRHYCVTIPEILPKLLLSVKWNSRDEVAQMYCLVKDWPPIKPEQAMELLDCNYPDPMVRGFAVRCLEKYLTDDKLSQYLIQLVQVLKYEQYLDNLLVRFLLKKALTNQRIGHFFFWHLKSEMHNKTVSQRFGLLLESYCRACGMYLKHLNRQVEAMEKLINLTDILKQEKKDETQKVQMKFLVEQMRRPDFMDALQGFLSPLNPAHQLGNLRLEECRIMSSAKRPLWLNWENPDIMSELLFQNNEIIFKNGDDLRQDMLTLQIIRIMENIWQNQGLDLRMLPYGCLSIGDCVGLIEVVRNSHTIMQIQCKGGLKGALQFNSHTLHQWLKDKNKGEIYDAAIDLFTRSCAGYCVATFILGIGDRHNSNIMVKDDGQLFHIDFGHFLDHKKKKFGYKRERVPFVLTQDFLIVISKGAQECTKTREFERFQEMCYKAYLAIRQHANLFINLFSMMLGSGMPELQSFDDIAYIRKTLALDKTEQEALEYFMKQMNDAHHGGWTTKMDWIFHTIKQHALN
Sequence of UniProt P15056 (whole entry, unmodified, looked up): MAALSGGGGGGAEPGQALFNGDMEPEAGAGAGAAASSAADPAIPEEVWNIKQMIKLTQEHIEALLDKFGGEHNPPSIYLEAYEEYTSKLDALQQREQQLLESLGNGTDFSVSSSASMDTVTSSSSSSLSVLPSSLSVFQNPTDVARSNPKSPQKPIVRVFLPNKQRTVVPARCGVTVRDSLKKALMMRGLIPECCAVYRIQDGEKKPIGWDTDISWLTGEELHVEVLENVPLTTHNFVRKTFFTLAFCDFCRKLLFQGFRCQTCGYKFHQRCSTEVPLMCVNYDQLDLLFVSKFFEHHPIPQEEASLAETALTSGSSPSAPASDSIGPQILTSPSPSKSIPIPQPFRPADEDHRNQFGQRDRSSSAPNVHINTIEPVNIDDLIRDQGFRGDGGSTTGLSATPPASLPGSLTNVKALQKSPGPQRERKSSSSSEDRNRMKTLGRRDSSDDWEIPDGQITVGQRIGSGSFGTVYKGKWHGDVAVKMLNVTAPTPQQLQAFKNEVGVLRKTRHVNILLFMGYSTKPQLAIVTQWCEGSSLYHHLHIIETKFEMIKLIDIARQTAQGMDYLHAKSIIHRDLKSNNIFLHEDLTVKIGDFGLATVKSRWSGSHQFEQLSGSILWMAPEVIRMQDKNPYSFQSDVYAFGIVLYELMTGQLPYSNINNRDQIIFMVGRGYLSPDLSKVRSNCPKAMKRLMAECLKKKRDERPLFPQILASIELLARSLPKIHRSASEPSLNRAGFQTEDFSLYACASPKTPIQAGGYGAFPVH

Series 1
Target: DNA polymerase theta, ATPase domain (POLQ, Homo sapiens, UniProt O75417)
Sequence of UniProt O75417 (whole entry, unmodified, looked up): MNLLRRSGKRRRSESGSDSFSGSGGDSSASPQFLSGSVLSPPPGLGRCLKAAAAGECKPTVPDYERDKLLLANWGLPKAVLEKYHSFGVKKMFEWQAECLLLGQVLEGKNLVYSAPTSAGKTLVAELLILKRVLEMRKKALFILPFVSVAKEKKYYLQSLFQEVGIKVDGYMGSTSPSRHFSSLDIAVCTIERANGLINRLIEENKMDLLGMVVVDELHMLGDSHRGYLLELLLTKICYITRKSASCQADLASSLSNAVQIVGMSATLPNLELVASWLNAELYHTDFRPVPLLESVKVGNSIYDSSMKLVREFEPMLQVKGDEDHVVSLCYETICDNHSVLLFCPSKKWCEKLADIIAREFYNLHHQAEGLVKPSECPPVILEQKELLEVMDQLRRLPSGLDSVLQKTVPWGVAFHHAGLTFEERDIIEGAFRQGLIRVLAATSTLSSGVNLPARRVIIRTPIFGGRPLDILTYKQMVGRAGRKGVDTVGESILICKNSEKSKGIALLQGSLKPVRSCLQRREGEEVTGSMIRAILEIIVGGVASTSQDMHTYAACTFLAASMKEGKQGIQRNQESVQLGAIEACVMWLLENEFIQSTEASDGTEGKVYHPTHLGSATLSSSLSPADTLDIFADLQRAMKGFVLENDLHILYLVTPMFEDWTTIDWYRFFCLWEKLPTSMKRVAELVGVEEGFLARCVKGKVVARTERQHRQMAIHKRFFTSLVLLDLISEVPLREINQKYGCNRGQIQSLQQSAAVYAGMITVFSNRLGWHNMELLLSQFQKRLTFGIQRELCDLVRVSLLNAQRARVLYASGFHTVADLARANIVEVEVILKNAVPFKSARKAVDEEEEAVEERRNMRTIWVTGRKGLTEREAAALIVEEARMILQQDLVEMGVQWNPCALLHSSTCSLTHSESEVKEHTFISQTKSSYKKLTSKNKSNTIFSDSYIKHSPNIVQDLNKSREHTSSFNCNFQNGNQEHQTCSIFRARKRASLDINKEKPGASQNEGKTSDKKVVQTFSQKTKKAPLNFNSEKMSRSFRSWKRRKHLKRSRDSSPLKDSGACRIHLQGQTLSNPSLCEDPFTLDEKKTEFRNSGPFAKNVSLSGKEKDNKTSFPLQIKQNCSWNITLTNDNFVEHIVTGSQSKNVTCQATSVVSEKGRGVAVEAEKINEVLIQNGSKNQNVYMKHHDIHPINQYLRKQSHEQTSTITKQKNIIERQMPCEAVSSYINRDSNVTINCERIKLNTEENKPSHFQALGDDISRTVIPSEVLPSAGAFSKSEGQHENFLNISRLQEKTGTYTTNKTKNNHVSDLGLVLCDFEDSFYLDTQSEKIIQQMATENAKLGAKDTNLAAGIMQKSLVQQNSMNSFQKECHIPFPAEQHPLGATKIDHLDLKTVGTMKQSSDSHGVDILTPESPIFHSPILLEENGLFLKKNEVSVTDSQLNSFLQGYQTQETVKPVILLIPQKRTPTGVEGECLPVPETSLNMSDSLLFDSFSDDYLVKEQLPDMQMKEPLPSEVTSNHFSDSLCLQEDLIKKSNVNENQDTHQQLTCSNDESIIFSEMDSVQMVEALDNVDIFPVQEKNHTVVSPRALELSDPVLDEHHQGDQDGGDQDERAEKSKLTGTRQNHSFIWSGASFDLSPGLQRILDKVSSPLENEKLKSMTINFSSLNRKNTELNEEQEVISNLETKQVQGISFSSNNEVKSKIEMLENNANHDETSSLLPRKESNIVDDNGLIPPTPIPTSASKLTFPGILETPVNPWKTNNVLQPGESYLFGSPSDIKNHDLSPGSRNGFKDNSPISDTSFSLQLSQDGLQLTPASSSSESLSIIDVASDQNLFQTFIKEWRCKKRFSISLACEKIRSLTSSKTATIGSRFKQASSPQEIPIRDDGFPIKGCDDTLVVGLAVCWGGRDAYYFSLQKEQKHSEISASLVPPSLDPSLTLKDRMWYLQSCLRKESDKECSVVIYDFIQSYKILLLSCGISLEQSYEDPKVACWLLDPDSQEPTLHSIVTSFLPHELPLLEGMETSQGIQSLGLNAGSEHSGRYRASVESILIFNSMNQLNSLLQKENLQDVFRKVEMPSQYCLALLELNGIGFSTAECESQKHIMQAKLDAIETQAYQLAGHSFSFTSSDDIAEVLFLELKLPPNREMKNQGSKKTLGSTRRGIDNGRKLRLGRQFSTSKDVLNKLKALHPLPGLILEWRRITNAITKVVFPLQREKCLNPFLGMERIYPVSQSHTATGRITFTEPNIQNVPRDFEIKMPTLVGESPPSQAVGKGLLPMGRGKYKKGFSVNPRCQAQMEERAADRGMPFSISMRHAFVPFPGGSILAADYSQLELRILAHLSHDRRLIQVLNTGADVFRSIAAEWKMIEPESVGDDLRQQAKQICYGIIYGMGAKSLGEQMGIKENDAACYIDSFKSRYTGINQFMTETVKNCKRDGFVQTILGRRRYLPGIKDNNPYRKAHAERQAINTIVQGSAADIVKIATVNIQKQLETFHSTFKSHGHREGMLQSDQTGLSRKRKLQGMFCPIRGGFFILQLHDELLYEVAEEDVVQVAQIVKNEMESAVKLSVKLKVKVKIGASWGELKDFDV
Observed: enzyme activity
Mode: inhibitor
Concentration: 77 µM
Relative to: untreated
`CC(C)(C(=O)NCC(F)(F)C(F)(F)F)C(=O)N[C@@H]1C(=O)Nc2ccccc2-c2ccccc21` has a remaining activity of 101%.
`Cc1cnc(Nc2ccc(N3CCN(C)CC3)cc2)nc1Nc1cccc(S(=O)(=O)NC(C)(C)C)c1` has a remaining activity of 98.5%.
`O=C(O)C1=CC(=C(c2ccc(O)c(C(=O)O)c2)c2ccc(O)c(C(=O)O)c2)C=CC1=O` has a remaining activity of 5.88%.
With `Cn1c(=O)cc(N2CCC[C@@H](N)C2)n(Cc2cc(F)ccc2C#N)c1=O` the remaining activity was 102%.
`CCCc1nc2c(C)cc(-c3nc4ccccc4n3C)cc2n1Cc1ccc(-c2ccccc2C(=O)O)cc1` gave a remaining activity of 90.5%.
`O=C(O)C1CCCN(CCC=C(c2ccccc2)c2ccccc2)C1` (centres unmarked) has a remaining activity of 96.3%.
With `O=C(O)[C@H](O)[C@@H](O)[C@H](O[C@@H]1O[C@H](CO)[C@H](O)[C@H](O)[C@H]1O)[C@H](O)CO` the remaining activity was 99.3%.
`CCCCCCCCCCC[C@@H](C[C@@H]1OC(=O)[C@H]1CCCCCC)OC(=O)[C@H](CC(C)C)NC=O` has a remaining activity of 88%.
For `CCOc1nc2cccc(C(=O)OCc3oc(=O)oc3C)c2n1Cc1ccc(-c2ccccc2-c2noc(=O)[nH]2)cc1`, the remaining activity was 59.1%.
With `CC(CCc1ccc(O)cc1)NCCc1ccc(O)c(O)c1` (centres unmarked) the remaining activity was 101%.
With `COc1cc(CNC(=O)CCCC/C=C/C(C)C)ccc1O` the remaining activity was 96.1%.
The remaining activity of `O=C(CCCCCCC(=O)Nc1ccccc1)NO` is reported as 102%.
The remaining activity of `CS(=O)(=O)Nc1ccc([N+](=O)[O-])cc1Oc1ccccc1` is reported as 97.9%.

Series 2
Structure (SMILES): N#CC1(c2ccccn2)CCN(Cc2cc(C(=O)N3CCCC3)c(=O)n3ccccc23)CC1
Concentration: 1 µM
The remaining binding was 75% (Tyrosine-protein kinase ABL1, phosphorylated (ABL1, Homo sapiens, UniProt P00519, F317I); binding).
The remaining binding was 100% (FLT3 (Homo sapiens, UniProt P36888, N841I); cell-free assay, competition with immobilised ligand).
BRAF (Homo sapiens, UniProt P15056, V600E); cell-free assay, competition with immobilised ligand — remaining binding: 99%.
The remaining binding was 100% (BRAF (Homo sapiens, UniProt P15056); cell-free assay, competition with immobilised ligand).
For Tyrosine-protein kinase ABL1, non-phosphorylated (ABL1, Homo sapiens, UniProt P00519, T315I); cell-free assay, competition with immobilised ligand: remaining binding read 83%.
For PTK2B (Homo sapiens, UniProt Q14289); cell-free assay, competition with immobilised ligand: remaining binding read 86%.
For RET (Homo sapiens, UniProt P07949, V804M); cell-free assay, competition with immobilised ligand: remaining binding read 95%.
PIK3CB (Homo sapiens, UniProt P42338); cell-free assay, competition with immobilised ligand — remaining binding: 100%.
The remaining binding was 100% (PIK3CA (Homo sapiens, UniProt P42336, H1047L); cell-free assay, competition with immobilised ligand).
GSK3A (Homo sapiens, UniProt P49840); cell-free assay, competition with immobilised ligand — remaining binding: 72%.
STK35 (Homo sapiens, UniProt Q8TDR2); cell-free assay, competition with immobilised ligand — remaining binding: 96%.
The remaining binding was 78% (TYRO3 (Homo sapiens, UniProt Q06418); cell-free assay, competition with immobilised ligand).
It gave 91% for remaining binding (CDK4 (Homo sapiens, UniProt P11802); cell-free assay, competition with immobilised ligand).
The remaining binding was 82% (PTK6 (Homo sapiens, UniProt Q13882); cell-free assay, competition with immobilised ligand).
For FES (Homo sapiens, UniProt P07332); cell-free assay, competition with immobilised ligand: remaining binding read 99%.
The remaining binding was 79% (CSNK1G1 (Homo sapiens, UniProt Q9HCP0); cell-free assay, competition with immobilised ligand).
The remaining binding was 78% (PRPF4B (Homo sapiens, UniProt Q13523); cell-free assay, competition with immobilised ligand).
The remaining binding was 100% (EPHB6 (Homo sapiens, UniProt O15197); cell-free assay, competition with immobilised ligand).
For MATK (Homo sapiens, UniProt P42679); cell-free assay, competition with immobilised ligand: remaining binding read 76%.
For RIPK2 (Homo sapiens, UniProt O43353); cell-free assay, competition with immobilised ligand: remaining binding read 83%.
EPHB3 (Homo sapiens, UniProt P54753); cell-free assay, competition with immobilised ligand — remaining binding: 90%.
It gave 82% for remaining binding (SRPK3 (Homo sapiens, UniProt Q9UPE1); cell-free assay, competition with immobilised ligand).
For PIK3CA (Homo sapiens, UniProt P42336, E545A); cell-free assay, competition with immobilised ligand: remaining binding read 78%.
It gave 85% for remaining binding (TEK (Homo sapiens, UniProt Q02763); cell-free assay, competition with immobilised ligand).
The remaining binding was 100% (MAP4K1 (Homo sapiens, UniProt Q92918); cell-free assay, competition with immobilised ligand).

Series 3
Target: Eukaryotic initiation factor 4A-III (Homo sapiens, UniProt P38919)
Sequence of UniProt P38919 (whole entry, looked up): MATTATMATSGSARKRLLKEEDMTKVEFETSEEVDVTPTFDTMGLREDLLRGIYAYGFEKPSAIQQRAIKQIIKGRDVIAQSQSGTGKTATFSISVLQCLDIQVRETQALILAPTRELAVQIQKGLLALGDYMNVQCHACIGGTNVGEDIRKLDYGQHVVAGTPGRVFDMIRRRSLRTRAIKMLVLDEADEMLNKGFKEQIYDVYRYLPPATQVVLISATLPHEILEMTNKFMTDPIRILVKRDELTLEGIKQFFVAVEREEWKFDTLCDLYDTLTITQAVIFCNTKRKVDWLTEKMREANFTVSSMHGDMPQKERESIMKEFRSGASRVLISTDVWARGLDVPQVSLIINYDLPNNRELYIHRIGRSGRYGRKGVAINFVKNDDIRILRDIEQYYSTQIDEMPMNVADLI
Observed: RNA clamping
Technique: fluorescence polarization
Concentration: concentration not given
Setting: mean of two replicates
With: FAM-labelled poly r(AG)8 RNA
For `O=C1O[C@H]2[C@@H]1[C@H](c1ccccc1)[C@@]1(c3ccccc3)Oc3ccccc3[C@@]21O`, “fluorescence polarization change” read 1.9 mP.
`COC(=O)[C@@H]1[C@@H](O)[C@@]2(O)c3c(OC)cc(OS(=O)(=O)c4ccc(C)cc4)cc3O[C@@]2(c2ccc(OC)cc2)[C@H]1c1ccccc1` — result for “fluorescence polarization change”: 0.3 mP.
`COc1ccc([C@@]23Oc4cc(OC)cc(OC)c4[C@]2(O)[C@@H]2OC(=O)[C@@H]2[C@H]3c2ccccc2)cc1` — result for “fluorescence polarization change”: 25.5 mP.
`CCCC1=N[C@@]2(O)[C@H](C(=O)OC)[C@@H](c3ccccc3)[C@]3(c4ccc(OC)cc4)Oc4cc(OC)cc(OC)c4[C@]23N1` — result for “fluorescence polarization change”: 36 mP.
Under “fluorescence polarization change”, `COC(=O)[C@@H]1[C@@H](c2ccccc2)[C@]2(c3ccc(OC)cc3)Oc3cc(OC)cc(OC)c3[C@@]23N=C(c2ccccc2)N[C@@]13O` is recorded as 13.2 mP.
Under “fluorescence polarization change”, `C#CCCC1(CCOc2cc(OC)c3c(c2)O[C@@]2(c4ccc(OC)cc4)[C@H](c4ccccc4)[C@@H](C(=O)c4ccco4)[C@@H](O)[C@@]32O)N=N1` is recorded as -3.1 mP.
Under “fluorescence polarization change”, `COc1ccc([C@@]23Oc4cc(OC)cc(OC)c4[C@]2(O)[C@H](O)[C@H](C(=O)c2ccco2)[C@H]3c2ccccc2)cc1` is recorded as 23 mP and 11.5 mP.
Under “fluorescence polarization change”, `COC(=O)[C@@H]1[C@@H](O)[C@@]2(O)c3c(OC)cc(F)cc3O[C@@]2(c2ccc(Cl)cc2)[C@H]1c1ccccc1` is recorded as 13.2 mP.
Under “fluorescence polarization change”, `COc1ccc([C@@]23Oc4cc(OC)cc(OC)c4[C@]2(O)c2nc(-c4ccccc4)[nH]c(=O)c2/C3=C\Cc2ccccc2)cc1` is recorded as 2.8 mP.
`COCCN[C@@]12C(=O)C[C@@H](c3ccccc3)[C@]1(c1ccc(OC)cc1)Oc1cc(OC)cc(OC)c12`: “fluorescence polarization change” 0.8 mP.
Under “fluorescence polarization change”, `COC(=O)C1=C(OS(=O)(=O)c2ccc(C)cc2)[C@@]2(O)c3c(OC)cc(OC)cc3O[C@@]2(c2ccc(OC)cc2)[C@@H]1c1ccccc1` is recorded as 3.5 mP.
For `COc1ccc([C@@]23Oc4cc(OC)cc(OC)c4[C@]2(O)c2nc(-c4cccc(OC)c4)[nH]c(=O)c2[C@H]3c2ccccc2)cc1`, “fluorescence polarization change” read 27.6 mP and 9.3 mP.

Series 4
SMILES: N#CC(c1ccnc(NCCc2cccnc2)n1)c1nc2ccccc2s1 (centres unmarked)
Observed: enzyme activity
Mode: inhibitor
Concentration: 0.5 µM
Relative to: control
PRKCI (Homo sapiens, UniProt P41743) — remaining activity: 94.4%.
It gave 22.1% for remaining activity (CSNK2A1 (Homo sapiens, UniProt P68400)).
EPHA5 (Homo sapiens, UniProt P54756) — remaining activity: 113%.
BTK (Homo sapiens, UniProt Q06187) — remaining activity: 88.8%.
MAP2K6 (Homo sapiens, UniProt P52564) — remaining activity: 92.5%.
For AKT3 (Homo sapiens, UniProt Q9Y243): remaining activity read 105%.
For PLK2 (Homo sapiens, UniProt Q9NYY3): remaining activity read 95.8%.
It gave 96.4% for remaining activity (LYN (Homo sapiens, UniProt P07948)).
It gave 93.6% for remaining activity (KIT (Homo sapiens, UniProt P10721)).
For MAPK12 (Homo sapiens, UniProt P53778): remaining activity read 96.7%.
CHEK1 (Homo sapiens, UniProt O14757) — remaining activity: 94.6%.
STK38 (Homo sapiens, UniProt Q15208) — remaining activity: 100%.
It gave 97.5% for remaining activity (PRKG1 (Homo sapiens, UniProt Q13976)).
WNK2 (Homo sapiens, UniProt Q9Y3S1) — remaining activity: 106%.
For LRRK2 (Homo sapiens, UniProt Q5S007): remaining activity read 83.4%.
CSNK1A1 (Homo sapiens, UniProt P48729) — remaining activity: 80%.
MKNK2 (Homo sapiens, UniProt Q9HBH9) — remaining activity: 51%.
NEK4 (Homo sapiens, UniProt P51957) — remaining activity: 89.1%.
For MAP4K2 (Homo sapiens, UniProt Q12851): remaining activity read 76.9%.
The remaining activity was 100% (MAPK13 (Homo sapiens, UniProt O15264)).
The remaining activity was 92.2% (PRKCD (Homo sapiens, UniProt Q05655)).
Cyclin-dependent kinase 9, with cyclin T1 (CDK9, Homo sapiens, UniProt P50750) — remaining activity: 23.3%.
The remaining activity was 83.7% (IRAK4 (Homo sapiens, UniProt Q9NWZ3)).
For MAP3K10 (Homo sapiens, UniProt Q02779): remaining activity read 79.6%.

Some of these lines once more (series 4):
For AKT3 (Homo sapiens, UniProt Q9Y243): remaining activity read 105%.
For PLK2 (Homo sapiens, UniProt Q9NYY3): remaining activity read 95.8%.
It gave 96.4% for remaining activity (LYN (Homo sapiens, UniProt P07948)).
It gave 93.6% for remaining activity (KIT (Homo sapiens, UniProt P10721)).
For MAPK12 (Homo sapiens, UniProt P53778): remaining activity read 96.7%.
CHEK1 (Homo sapiens, UniProt O14757) — remaining activity: 94.6%.
STK38 (Homo sapiens, UniProt Q15208) — remaining activity: 100%.
It gave 97.5% for remaining activity (PRKG1 (Homo sapiens, UniProt Q13976)).
